Measured values of several laboratories.
Lines come from different studies, so protocols differ. ± gives the spread as reported.

CC(=O)c1cc([N+](=O)[O-])c(Sc2cccc(Cl)c2Cl)s1
IC50 (MM.1R; cell viability; 48 h): 6 to 14 µM

C(=N\Nc1nc(Nc2ccccc2)nc(N2CCOCC2)n1)/c1c[nH]c2ccccc12
IC50 (mouse Gmnn fl/fl ER-Cre ESCs; cell viability, trypan blue; 72 h): 1 µM

β-secretase inhibitor IV
IC50 (H4 overexpressing human APP Swedish; Abeta38 formation; 24 h): 0.092 µM

Cc1ccc(/C=C/C(=O)C(=CC2=CC=C[CH]2[Fe][CH]2C=CC=C2)C(=O)/C=C/c2ccc(C)c(C)c2)cc1C (stereo not shown)
IC50 (RKO; cell growth or viability, MTT): 59.1 µM

CC/C(=C(\c1ccccc1)c1ccc(OCCN(C)C(=O)CCCCOc2ccc3[nH]cc(CCNC(C)=O)c3c2)cc1)c1ccccc1
IC50 (HT-1080; cell survival, MTT; day 9, dosed days 2, 4, 7): 26.3 µM

COc1cc2ccc3cccc(O)c3c2c(OC)c1O
IC50 (BV-2; NO release, inhibitor, Griess; LPS-stimulated): > 20 µM

CCC(=O)c1cc(O)c2ccccc2c1O
IC50 (HS27; cell growth or viability, MTS; 72 h): > 10 µM

C[C@]1([N+](=O)[O-])C(=O)c2cc(F)ccc2O[C@@H]1CC(=O)NC12CC3CC(CC(C3)C1)C2
IC50 (PC-3M; cell growth or viability, SRB; 96 h): 5.66 µM

CCCNC(=O)Nc1ccc(S(=O)(=O)Oc2cccnc2Br)cc1
IC50 (HT-1080; cell growth or viability, SRB; 48 h): 6 µM

COc1ccc(C[C@H]2COC(=O)[C@@H]2Cc2ccc(OCc3cn(CC(=O)NO)nn3)c(OC)c2)cc1OC
IC50 (Kasumi 1; cell growth or viability, CCK-8; 48 h): > 5 µM

Fc1ccc2nc(-c3ccc(OCc4cn(CCN5CCOCC5)nn4)c(F)c3)[nH]c2c1
IC50 (DND41; cell growth or viability, MTS; 72 h): 41.6 µM

COc1cc(O)c2c(=O)c(O)c(-c3ccc(O)c(O)c3)oc2c1
IC50 (BV-2; TNF-α release, inhibitor, ELISA; LPS-stimulated): 28.7 µM

C[C@H]1[C@H](C)CC[C@]2(C(=O)O)CC[C@]3(C)C(=CC[C@@H]4[C@@]5(C)CC[C@H](O)C(C)(C)[C@@H]5CC[C@]43C)[C@H]12
IC50 (OVCAR-3; cytotoxicity; 72 h): > 10 µM

CC[C@]1(O)C[C@H]2CN(CCc3c([nH]c4ccccc34)[C@@](C(=O)OC)(c3cc4c(cc3OC)N(C=O)[C@H]3[C@@](O)(C(=O)OC)[C@H](OC(C)=O)[C@]5(CC)C=CCN6CC[C@]43[C@@H]65)C2)C1
IC50 (HCT-15; cell growth or viability, XTT; 72 h): 0.921 µg/mL

O=C(NCCCl)Nc1ccc(S(=O)(=O)Oc2cccnc2Br)cc1
IC50 (HT-1080; cell growth or viability, SRB; 48 h): 3.8 µM

CSc1cc(Oc2ccnc3[nH]c(=O)cnc23)ccc1NC(=O)Nc1cc(C(C)(C)C)nn1-c1ccc(C)cc1
IC50 (WM 266-4; ERK1/2 phosphorylation, inhibitor, cell-based ELISA; 6 h): 0.005 ± 0.002 µM

COc1cc(/C=C/C(=O)/C(=C/C2=CC=C[CH]2[Fe][CH]2C=CC=C2)C(=O)/C=C/c2ccc(O)cc2)ccc1O (stereo not shown)
IC50 (RKO; cell growth or viability, MTT): 11.9 µM

O=c1[nH]cc(F)c(=O)[nH]1
IC50 (HT-1080; cell growth or viability, MTT; 72 h): 14 µM

[Ala11,D-Leu15]orexin B
IC50 (rat cortical primary neurons; cAMP formation, antagonist; 15 min, together with: PACAP27 0.1 µM): 0.0323 ± 0.0019 µM

CN1CCN(Cc2ccc(/C=N/NC(=O)Nc3cc4c(Nc5ccc(F)c(Cl)c5)ncnc4cc3O[C@H]3CCOC3)cc2)CC1
IC50 (NCI-H1975; cell growth or viability, MTT; 72 h): 36.3 µM

O=C(Cc1ccc(Cl)cc1)Nc1nc2ccccc2n1Cc1ccc(Br)cc1
IC50 (MDA-MB-231-HRE-Luc cells; HIF reporter gene, inhibitor; 24 h, hypoxia 1% O2): 3.58 ± 1.38 µM

O=C(C=Cc1ccccc1)C(=CC1=CC=C[CH]1[Fe][CH]1C=CC=C1)C(=O)/C=C/c1ccccc1 (stereo not shown)
IC50 (RKO; cell growth or viability, MTT): 5.64 µM

Fc1cc(-c2nc3ccccc3[nH]2)ccc1OCc1cn(CCN2CCOCC2)nn1
IC50 (DND41; cell growth or viability, MTS; 72 h): 46.9 µM

COc1cc(O)c2c(c1)O[C@H](c1ccc(O)cc1)CC2=O
IC50 (BV-2; NO release, inhibitor, Griess; LPS-stimulated): 85.8 µM

Cc1ccc(-c2c3n(c4c(=O)[nH]nc(O)c24)CCn2cccc2-3)cc1
IC50 (PC-3; cell growth or viability, MTT; 48 h): 53.2 µM

Nc1ccn([C@@H]2O[C@H](CO)[C@@H](O)C2(F)F)c(=O)n1
IC50 (AsPC-1; cell viability, MTT; 48 h): 11.8 µM

CCN(CC)Cc1ccc(/C=N/NC(=O)Nc2cc3c(Nc4ccc(F)c(Cl)c4)ncnc3cc2OC)cc1
IC50 (NCI-H1975; cell growth or viability, MTT; 72 h): 76.3 µM

Cc1ccc2nc(NCCN)c3ncc(C)n3c2c1
IC50 (BGC-823; cell growth or viability, MTT; 72 h): 8.6 µM

C[C@]1([N+](=O)[O-])C(=O)c2cc(Cl)ccc2O[C@@H]1CC(=O)NC12CC3CC(CC(C3)C1)C2
IC50 (PC-3M; cell growth or viability, SRB; 96 h): 6.34 µM

Cc1ccc(C(CS(=O)(=O)c2ccccc2)=NNC2=NC(=O)C(=NNc3ccccc3)S2)cc1
IC50 (WM 266-4; cell growth or viability, MTT; 48 h): 6.18 µM

CCCCCCCCCCCCC/C=C/[C@@H](O)[C@@H](N)COP(=O)(O)O
IC50 (human primary astrocytes; forskolin-induced cAMP production, agonist, AlphaScreen; together with: forskolin 10 µM): 0.00117 µM

COc1c(-c2coc3cc4c(cc3c2=O)CC(O)C(C)(C)O4)ccc2c1C=CC(C)(C)O2 (stereo not shown)
IC50 (human primary myometrial cells; calcium mobilisation, inhibitor): 27 µM

COc1cc2[nH]c(C)c(-c3ccc(-c4ccc(OC(F)(F)F)cc4)cc3)c(=O)c2cc1F
IC50 (HeLa and HCT-116 average; cell viability, MTT; 48 h): 26 µM

O=C(NCCCl)Nc1ccc(S(=O)(=O)Oc2cccnc2I)cc1
IC50 (HT-1080; cell growth or viability, SRB; 48 h): 1.8 µM

COc1cc(OC)c(Cl)c(NC(=O)N(C)c2cc(Nc3ccc(N4CCN(CC(=O)N[C@H](C(=O)N5C[C@H](O)C[C@H]5C(=O)N[C@@H](C)c5ccc(-c6scnc6C)cc5)C(C)(C)C)CC4)cc3)ncn2)c1Cl
IC50 (RBE (no FGFR activation); cell proliferation, CellTiter-Glo; 3 d): > 10 µM

c1ccc2[nH]c(-c3ccc(OCCN4CCOCC4)cc3)nc2c1
IC50 (DND41; cell growth or viability, MTS; 72 h): 42.9 µM

Cn1cc(CN2CCN(c3ncc(C(=O)NO)cn3)CC2)c2ccccc21
IC50 (HEL; 24 h): 0.162 ± 0.00212 µM

CN1CCC2(CC1)C/C(=N\N=C\c1ccc(Cl)cc1)c1ccccc1O2
IC50 (MCF7, HCT-116, PC-3, A549; cell growth, MTT; range over cell lines): 2.02 to 23.2 µM

CCN(CC)CCOc1ccc(-c2nc3ccc(Cl)cc3[nH]2)cc1
IC50 (DND41; cell growth or viability, MTS; 72 h): 42.9 µM

O=C(N/N=C/c1ncc(N2CCOCC2)s1)Nc1cc2c(Nc3ccc(F)c(Cl)c3)ncnc2cc1O[C@H]1CCOC1
IC50 (NCI-H1975; cell growth or viability, MTT; 72 h): 16.3 µM

CC[n+]1c(/C=C/C=C2/N(C)c3ccccc3C2(C)C)sc2ccccc21
IC50 (hiPSC hepatic differentiation phase III; cell viability, CCK-8; 48 h): 0.77 ± 0.39 µM

COc1ccc(OC)c(/C=C2\CC/C(=C\c3ccc(O)c(OC)c3)C2=O)c1
IC50 (BGC-823; cell growth or viability, MTT; 72 h): 4.7 µM

Pinoresinol
IC50 (fibroblast; MTT; 24 h): 650 µM

O=C1C(Cl)=C(NCCN2CCOCC2)C(=O)c2ccccc21
IC50 (HEC-1-A; cell viability, MTT; without thiol pretreatment): 10.2 µM

COc1cccc2c1C(=O)c1c(O)c3c(c(O)c1C2=O)C[C@@](O)(C(=O)CO)C[C@@H]3O[C@H]1C[C@H](N)[C@@H](O)[C@H](C)O1
IC50 (HCT-15; cell growth or viability, XTT; 72 h): 1.98 µg/mL

COc1ccc(C[C@H]2COC(=O)[C@@H]2Cc2ccc(OCC(=O)NCCCCC(=O)Nc3ccccc3N)c(OC)c2)cc1OC
IC50 (Kasumi 1; cell growth or viability, CCK-8; 48 h): > 5 µM

CNC(=O)c1cc(Oc2ccc(NC(=O)Nc3ccc(Cl)c(C(F)(F)F)c3)cc2)ccn1
IC50 (MHCC97H cells; cell viability, MTT; concentration not given, together with: pralatrexate 2): 0.02 µM

COC1=CC(=O)c2c(ccc3cc(OC)c(OC)c(OC)c23)C1=O
IC50 (BV-2; NO release, inhibitor, Griess; LPS-stimulated): 9.95 µM

O=C(COc1ccc(-c2nc3ccccc3[nH]2)cc1F)N1CCOCC1
IC50 (DND41; cell growth or viability, MTS; 72 h): > 100 µM

O=c1[nH]nc(O)c2c(-c3ccc(Cl)cc3Cl)c3n(c12)CCn1cccc1-3
IC50 (PC-3; cell growth or viability, MTT; 48 h): 76.3 µM

Clc1ccc2nc(-c3ccc(OCc4cn(CCN5CCOCC5)nn4)cc3)[nH]c2c1
IC50 (DND41; cell growth or viability, MTS; 72 h): > 100 µM

CN(Cc1cnc2nc(N)nc(N)c2n1)c1ccc(C(=O)N[C@@H](CCC(=O)O)C(=O)O)cc1
IC50 (rat Synovial cell; cell growth or viability, CCK-8; 48 h): 2.38 µM

CCN(CC)c1ccc(/C=N/NC(=O)Nc2cc3c(Nc4ccc(F)c(Cl)c4)ncnc3cc2O[C@H]2CCOC2)cc1
IC50 (NCI-H1975; cell growth or viability, MTT; 72 h): 10.6 µM

O=C1C(SCCO)=C(SCCO)C(=O)c2ccccc21
IC50 (hiPSC hepatic differentiation phase III; cell viability, CCK-8; 48 h): 83 ± 13.5 µM

CN(C)c1ccc(/C=N/NC(=O)Nc2cc3c(Nc4ccc(F)c(Cl)c4)ncnc3cc2O[C@H]2CCOC2)s1
IC50 (NCI-H1975; cell growth or viability, MTT; 72 h): 60.3 µM

COc1ccc(C[C@H]2COC(=O)[C@@H]2Cc2ccc(OCCCCCCC(=O)NO)c(OC)c2)cc1OC
IC50 (Kasumi 1; cell growth or viability, CCK-8; 48 h): > 5 µM

CN(C)C/C=C/C(=O)Nc1cc2c(Nc3ccc(F)c(Cl)c3)ncnc2cc1O[C@H]1CCOC1
IC50 (NCI-H1975; cell growth or viability, MTT; 72 h): 0.49 µM

C=CC(=O)Nc1cc(Nc2nccc(-c3cn(C)c4ccccc34)n2)c(OC)cc1N(C)CCN(C)C
IC50 (NCI-H1975; cell growth or viability, MTT; 72 h): 0.21 µM
